Experimental data of several laboratories.
Values joined by “and” are separate records of one study, mostly repeats; a detail may differ. ± gives the spread as reported.

The inhibition of `CC(=O)[O-].O.[Cu+2].[O-]c1ccc(Br)cc1C=NCCN1CCOCC1` is reported as 33.4% (hydroxyl radical scavenging; 120 µM).
Under “log2 fold change”, `COc1cc2c(NC3CCN(C(C)C)CC3)cc(N3CCOCC3)nc2cc1OCCCN1CCCC1` is recorded as 0.0784 (TMT proteomics, refers to: SCG2; 5xFAD mouse, hippocampus; dose not given; baseline: wild type).
The IL-18 inhibition of `CN1CCC[C@]1(C)/C=C/S(=O)(=O)NC(=O)Nc1c2c(cc3c1CCC3)CCC2` is reported as 112% (human, whole blood ex vivo; 50 mg twice daily, day 14, 36 h, multiple ascending dose, with: LPS and ATP).
`CC(C)OC(=O)[C@H](CO)NCc1cc(Cl)c(OCc2cccc(-c3ccccc3)c2Br)cc1OCc1cccnc1` has a tumour volume of 126 ± 14.9 mm³ (hPD-L1 MC-38 tumour, humanised hPD-1 C57BL/6 mouse; oral, 5 mg/kg × 21, day 1, baseline).
`CCCCC(=O)NC(c1ccc(N(CC)CC)cc1)c1ccc2cccnc2c1O` (stereo not shown) gave a translation activity of 114% and 111% (Trypanosoma cruzi; reporter mRNA translation, inhibitor, refers to: Renilla luciferase mRNA; cell-free extract; concentration not given, test 1; baseline: positive over negative control).
`COc1ccc(C(=O)CCc2cc(C(CCc3ccc(O)cc3OC)c3ccc(O)cc3)c(O)cc2OC)cc1` (racemic): “arachidonic acid level” 105000 ± 14700 pg/mL (human blood; 30 µM, with: A23187).
`Cc1[nH]nc2c1N=C(c1ccccc1Cl)c1cnc(N3CCOCC3)cc1N2` — result for “tumour growth inhibition”: 85% (mouse sample F TNBC PDX; oral, 15 mg/kg, 120 h, 5 days per week).
With `COC1OC(C)C(O)C(OC2OC(C)C(O)C(OC3OC(C)C(O)C(OC4OC(C)C(O)C(OC5OC(C)C(O)C(OC6OC(C)C(O)C(OC7OC(C)C(O)C(OC8OC(C)C(O)C(OC9OC(C)C(O)C(OC%10OC(C)C(O)C(OC%11OC(C)C(O)C(OC%12OC(C)C(O)C(OS(=O)(=O)O)C%12OS(=O)(=O)O)C%11OS(=O)(=O)O)C%10OS(=O)(=O)O)C9OS(=O)(=O)O)C8OS(=O)(=O)O)C7OS(=O)(=O)O)C6OS(=O)(=O)O)C5OS(=O)(=O)O)C4OS(=O)(=O)O)C3OS(=O)(=O)O)C2OS(=O)(=O)O)C1OS(=O)(=O)O` (stereo not shown) the APTT prolongation was 1.4 fold (human plasma; 128 µg/mL; baseline: control).
For `COc1ccc(/C=C/CN2CCCC(CCC(=O)NCc3ccc(F)c(F)c3)C2)cc1` (stereo not shown), the translation activity was 149% and 114% (Trypanosoma cruzi; reporter mRNA translation, inhibitor, refers to: Renilla luciferase mRNA; cell-free extract; concentration not given, test 1; baseline: positive over negative control).
With `C=CC(=O)Nc1cccc(Cn2ncc3cnc(Nc4cnn(CCOC)c4)nc32)c1` the binding was 98% (human p38-beta; KINOMEscan; 100 nM; baseline: control).
`COc1ccc(S(=O)(=O)N2CCc3ccccc3C2)cc1N1CCN(C(=O)c2ccc(F)cc2C(F)(F)F)CC1`: “TH-immunoreactive cell number” 59.9 ± 13.6 (stereology, optical fractionator, refers to: tyrosine hydroxylase; rat, 6-OHDA lesion model, substantia nigra pars compacta, lesioned side; 0.3 µg/24 h).
`Nc1ncc(-c2cc(-c3cnn(CC(F)(F)F)c3)ncc2F)nc1C(=O)NC1CNCC(F)C1` (stereo not shown) has a remaining binding of 98% (CAMK4; KINOMEscan; 1 µM; baseline: DMSO control).
For `COC1CN([C@H]2CC[C@H]([C@@]3(C)Oc4c(Cl)cc(C(=O)NCc5c(SC)cc(C)[nH]c5=O)c(C)c4O3)CC2)C1`, “log2 fold change” read 0.976 (RNA-seq, refers to: HOXA4 mouse homolog; mouse, HT-1376 xenograft, whole blood; dose not given; baseline: vehicle).
Under “peripheral blood cell counts”, `CC(C)[C@H](NC(=O)[C@H](Cc1ccccc1)NC(=O)[C@H](Cc1ccccc1)NC(=O)OCC1c2ccccc2-c2ccccc21)C(=O)N[C@@H](CCC(=O)O)C(=O)N[C@@H](CCC(=O)O)C(N)=O` is recorded as “no effect” (refers to: erythrocytes and leukocytes; mouse, blood; dose not given, 4 h; baseline: PBS).
For `Cc1onc(-c2ccccc2)c1-c1ccc(S(=O)(=O)Cl)cc1`, “pseudo-first-order rate constant” read 3.6 h⁻¹ (HPLC-MS; pH 10.2, with: 50 mM N-α-acetyl-lysine).
`COC1OC(C)C(O)C(OC2OC(C)C(O)C(OC3OC(C)C(O)C(OS(=O)(=O)O)C3OS(=O)(=O)O)C2OS(=O)(=O)O)C1OS(=O)(=O)O` (stereo not shown) gave an APTT prolongation of 1.1 fold (human plasma; 128 µg/mL; baseline: control).
`CN1CCCNC(=O)c2cccc(c2)C(=O)NCCCN(C)CCCNc2cccc3c2C(=O)c2cccc(c2C3=O)NCCC1` — result for “log2 fold change”: 1.31 (SAS; RNA-Seq, refers to: ATP6V1E2 mRNA; 1 µM, 6 h; baseline: untreated cells).
`COc1ccc(NC(=O)c2ccc3[nH]c(-c4ccc(N(C)C)cc4)nc3c2)cn1` gave a tumour volume of 1500 mm3 and 1060 mm3 and 862 mm3 and 1590 mm3 and 961 mm3 (Lewis lung carcinoma, mice, syngeneic graft, subcutaneous; intraperitoneal, 25 mg/kg daily, day 10).
`CNS(=O)(=O)Nc1nccc(Cc2c(C)c3ccc(Oc4ncccc4F)cc3oc2=O)c1F` gave an IC50 of greater than 1000 nM (D1.1; cell viability, CellTiter-Glo; 7 days).

Excerpt of the above:
With `COC1OC(C)C(O)C(OC2OC(C)C(O)C(OC3OC(C)C(O)C(OC4OC(C)C(O)C(OC5OC(C)C(O)C(OC6OC(C)C(O)C(OC7OC(C)C(O)C(OC8OC(C)C(O)C(OC9OC(C)C(O)C(OC%10OC(C)C(O)C(OC%11OC(C)C(O)C(OC%12OC(C)C(O)C(OS(=O)(=O)O)C%12OS(=O)(=O)O)C%11OS(=O)(=O)O)C%10OS(=O)(=O)O)C9OS(=O)(=O)O)C8OS(=O)(=O)O)C7OS(=O)(=O)O)C6OS(=O)(=O)O)C5OS(=O)(=O)O)C4OS(=O)(=O)O)C3OS(=O)(=O)O)C2OS(=O)(=O)O)C1OS(=O)(=O)O` (stereo not shown) the APTT prolongation was 1.4 fold (human plasma; 128 µg/mL; baseline: control).
